Measurements gathered from unrelated publications.
Each numbered part is a random draw from the data of one study; scales do not carry over between parts.

Study 1 — technique: protein-binding microarray; form: double-stranded DNA, one strand shown; medium: in vitro; tested at: 2540 nM top; setting: 60-bp whole probe; added: salmon DNA 0.4 mg/ml; baseline: random background probes; reading: higher = stronger binding
Target: Interferon regulatory factor 3, full length, phosphomimetic (IRF3, Homo sapiens, UniProt Q14653, residues 1-427, S386D/S396D/S398D/S402D/T404D/S405D)
All sequences stand within: GCCTAGCAC … GTGCTAGGTCTTGATTCGCTTGACGCTGCTG
Construct (chain): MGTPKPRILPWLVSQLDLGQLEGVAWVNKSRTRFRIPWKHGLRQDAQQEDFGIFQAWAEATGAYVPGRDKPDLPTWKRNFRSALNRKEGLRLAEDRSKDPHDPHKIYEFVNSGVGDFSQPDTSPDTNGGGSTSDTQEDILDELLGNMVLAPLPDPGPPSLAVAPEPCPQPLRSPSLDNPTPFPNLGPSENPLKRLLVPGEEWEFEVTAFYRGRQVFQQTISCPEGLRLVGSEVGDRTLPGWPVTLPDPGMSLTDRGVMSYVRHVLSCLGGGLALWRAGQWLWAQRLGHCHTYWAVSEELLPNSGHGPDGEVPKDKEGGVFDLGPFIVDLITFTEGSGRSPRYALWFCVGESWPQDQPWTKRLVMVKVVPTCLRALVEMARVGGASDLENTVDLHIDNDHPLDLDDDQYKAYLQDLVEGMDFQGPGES
`TTAGATCTCAGTATCGATTG`: “fitted relative affinity” 0.617 z-score.
Under “fitted relative affinity”, `ACATCCAAATCCACCATTCA` is recorded as 1.15 z-score.
Under “fitted relative affinity”, `TTAGGACTGGGTTTCGCTTA` is recorded as 1.11 z-score.
Under “fitted relative affinity”, `TTAGACCTCAGACTGGATTA` is recorded as -0.453 z-score.
`GACGAACTGAGTATCGAGCC`: “fitted relative affinity” -0.275 z-score.

Study 2 — technique: RNA Bind-n-Seq; form: RNA; medium: in vitro; tested at: 200 nM; setting: whole 134-nt RNA, ends assumed; added: 150 mM LiCl; baseline: input library; reading: higher = stronger binding; each molecule: 7-deaza-guanosine replaces G
Target: Ras GTPase-activating protein-binding protein 1, full length (G3BP1, Homo sapiens, UniProt Q13283)
Chain of UniProt Q13283 (whole entry, looked up): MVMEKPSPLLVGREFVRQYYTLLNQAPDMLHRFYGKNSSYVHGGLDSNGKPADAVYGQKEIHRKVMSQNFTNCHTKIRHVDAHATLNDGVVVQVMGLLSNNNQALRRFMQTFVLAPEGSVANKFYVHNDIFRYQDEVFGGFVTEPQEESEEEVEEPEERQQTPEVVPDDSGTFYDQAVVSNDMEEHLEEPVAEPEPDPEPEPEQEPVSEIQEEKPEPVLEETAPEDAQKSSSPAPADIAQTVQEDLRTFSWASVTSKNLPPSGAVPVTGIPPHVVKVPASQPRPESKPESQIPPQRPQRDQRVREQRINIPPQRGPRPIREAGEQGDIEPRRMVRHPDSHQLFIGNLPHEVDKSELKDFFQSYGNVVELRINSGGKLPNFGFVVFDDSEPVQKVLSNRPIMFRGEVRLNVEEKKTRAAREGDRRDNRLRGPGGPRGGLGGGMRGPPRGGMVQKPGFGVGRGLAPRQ
With `GGGAGUUCUACAGUCCGACGAUCCCUCAAGUCCUGUGCUACACAUCGUAUGUACCGAAUCGGCCGGCCGGCCGGGAAAGUAUUAUGUUACGCCGUUCGGAUCUGCACUUCCAGUGGAAUUCUCGGGUGUCAAGG` the log2 enrichment was -0.0583.
The log2 enrichment of `GGGAGUUCUACAGUCCGACGAUCAAGUCCUGUGCUACACAUCGUAUGUACCGAAUCGGGGAAAAAGGGGUGGGGAGGGGAAAGUAUUAUGUUACGCCGUUCGGAUCUGCACUUUGGAAUUCUCGGGUGUCAAGG` is reported as 0.278.
With `GGGAGUUCUACAGUCCGACGAUCAGUCCUGUGCUACACAUCGUAUGUACCGAAUCAAACCCAAAUUUAAACCCCCCCAAAAAAGUAUUAUGUUACGCCGUUCGGAUCUGCACUUGGAAUUCUCGGGUGUCAAGG` the log2 enrichment was 1.21.

Further values, each from its own experiment
UNK zinc fingers 1-6, GST-SBP tag: RING finger protein unkempt homolog, zinc fingers 1-6, GST-SBP tag (UNK, Homo sapiens, UniProt Q9C0B0, residues 30-357)
Chain of UniProt Q9C0B0 (30-357, looked up): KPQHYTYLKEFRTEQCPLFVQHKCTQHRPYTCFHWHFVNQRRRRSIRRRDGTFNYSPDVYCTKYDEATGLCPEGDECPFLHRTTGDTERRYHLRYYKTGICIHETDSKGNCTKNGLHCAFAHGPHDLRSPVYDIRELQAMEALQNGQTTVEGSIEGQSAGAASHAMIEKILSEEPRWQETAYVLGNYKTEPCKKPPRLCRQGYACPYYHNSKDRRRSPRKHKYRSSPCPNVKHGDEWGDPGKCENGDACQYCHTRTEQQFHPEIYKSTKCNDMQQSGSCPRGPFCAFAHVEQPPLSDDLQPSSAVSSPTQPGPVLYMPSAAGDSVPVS
`GGGAGUUCUACAGUCCGACGAUCGUUCUCUCUGUCACUGACUUAUUUGUAAGAGAAAAUUAGUUGGACUUGUUUAUUUUCUAGUAGCUUUUAUAAGUACACUCAAGAAUUUGUCAGGGAGAAUAAUUCUGAUAGUGCAUCCCACAACAGAGGAUUGAGCAUCA` gave a bound/input enrichment of 5.8 ratio (UNK zinc fingers 1-6, GST-SBP tag; RNA Bind-n-Seq; RNA, in vitro; not given, RNA with constant flanks, human and mouse sites, ends assumed; baseline: input RNA pool, higher = stronger binding).
For `PhoQ, residues 284 288 289 292 302 303 HSYLQF`, the fold induction was 4.67 (PhoP, residues 12 14 15 18 19 LWHCS (Escherichia coli, UniProt P23836); Sort-seq, refers to: YFP reporter; E. coli; PhoQ-PhoP variant library, added: 10 µM Mg2+; baseline: high Mg2+ state, higher = stronger signaling).
`GGGAGUUCUACAGUCCGACGAUCACCCACACUGAUGAGGACCCCCAGAUGUCAAUGGUUGAAGACUGUCAUGCUUCAGAGCAUAAUAGCCCGAUAUCCUCCAUUCCGUCUCAUCCUAGCCAGUCAGUCCGCUCUGUCAACAGCCAACAGAGGAUUGAGCAUCA` gave a bound/input enrichment of 0.237 ratio (UNK zinc fingers 1-6, GST-SBP tag; RNA Bind-n-Seq; RNA, in vitro; not given, RNA with constant flanks, human and mouse sites, ends assumed; baseline: input RNA pool, higher = stronger binding).
With `GGGAGUUCUACAGUCCGACGAUCCUGUGACCACAAGAUCCUGAAGUUUGAUUCAGAUGGGUUGACUCCCUCUCCUUGCCUGAACCCCCCCCCACUGCCCCCCCAUCCCCCAGUGUCGGCUGAGAUGUUGCCUCUGCACGGUUCCAACAGAGGAUUGAGCAUCA` the bound/input enrichment was 1.32 ratio (UNK zinc fingers 1-6, GST-SBP tag; RNA Bind-n-Seq; RNA, in vitro; not given, RNA with constant flanks, human-mouse chimeric sites, ends assumed; baseline: input RNA pool, higher = stronger binding).
The bound/input enrichment of `GGGAGUUCUACAGUCCGACGAUCGAAGAAAAACCCUAUAAAUGUGAUGUAUGCAACUUACAGUUUGCAACUUCUAGCAAUCUCAAGAUUCAUGCAAGGAAGCAUAGUGGAGAGAAGCCAUAUGUCUGUGAUAGGUGUGGACAGCAACAGAGGAUUGAGCAUCA` is reported as 0.228 ratio (UNK zinc fingers 1-6, GST-SBP tag; RNA Bind-n-Seq; RNA, in vitro; not given, RNA with constant flanks, human and mouse sites, ends assumed; baseline: input RNA pool, higher = stronger binding).

Some of these lines once more (further values, each from its own experiment):
For `PhoQ, residues 284 288 289 292 302 303 HSYLQF`, the fold induction was 4.67 (PhoP, residues 12 14 15 18 19 LWHCS (Escherichia coli, UniProt P23836); Sort-seq, refers to: YFP reporter; E. coli; PhoQ-PhoP variant library, added: 10 µM Mg2+; baseline: high Mg2+ state, higher = stronger signaling).
The bound/input enrichment of `GGGAGUUCUACAGUCCGACGAUCGAAGAAAAACCCUAUAAAUGUGAUGUAUGCAACUUACAGUUUGCAACUUCUAGCAAUCUCAAGAUUCAUGCAAGGAAGCAUAGUGGAGAGAAGCCAUAUGUCUGUGAUAGGUGUGGACAGCAACAGAGGAUUGAGCAUCA` is reported as 0.228 ratio (UNK zinc fingers 1-6, GST-SBP tag; RNA Bind-n-Seq; RNA, in vitro; not given, RNA with constant flanks, human and mouse sites, ends assumed; baseline: input RNA pool, higher = stronger binding).
